Results gathered from unrelated publications.
A part holds a random share of what one study measured. Positions count from the first letter of the parent shown.

Set 1
Target: UBE2V2 UBC core domain (UniProt Q15819)
Method: yeast two-hybrid
Sample: yeast
Setting: mostly zero background
Baseline: not given
Direction: higher = stronger interaction
B1: TRIM8 RING domain (UniProt Q9BZR9); chain WKNCFEEELICPICLHVFVEPVQLPCKHNFCRGCIGEAWAKDSGLVRCPECNQAYNQKPGLE
B2: CUL9 RING domain (UniProt Q8IWT3); chain AQAVPVRPDHCPVCVSPLGCDDDLPSLCCMHYCCKSCWNEYLTTRIEQNLVLNCTCPIADCPAQPTGAFIR
B3: MID1 RING domain (UniProt O15344); chain METLESELTCPICLELFEDPLLLPCAHSLCFNCAHRILVSHCATNESVESITAFQCPTCRHVITLSQRGL
B4: TRIM63 RING domain (UniProt Q969Q1); chain PMENLEKQLICPICLEMFTKPVVILPCQHNLCRKCANDIFQAANPYWTSRGSSVSMSGGRFRCPTCRHEVIMDRHGV
B5: RNF170 RING domain (UniProt Q96K19); chain TRQQFYTDMYCPICLHQASFPVETNCGHLFCGACIIAYWRYGSWLGAISCPICRQTVTLLLTVF
Construct (chain): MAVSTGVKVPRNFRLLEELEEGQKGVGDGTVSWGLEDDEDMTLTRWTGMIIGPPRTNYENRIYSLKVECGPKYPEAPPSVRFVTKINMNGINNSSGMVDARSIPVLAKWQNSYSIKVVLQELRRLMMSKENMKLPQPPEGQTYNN
Molecule | lacZ reporter activity
PEELQAMDNVCIICREEMVTGAKRLPCNHIFHTSCLRSWFQRQQTCPTCRMDVLRASLPA (SYVN1 RING domain (UniProt Q86TM6)) | 0
QLQDIKEQTMCPVCLDRLKNMIFLCGHGTCQLCGDRMSECPICRKAIERRILLY (MIB1 RING domain (UniProt Q86YT6)) | 0
RLTMMWEEVTCPICLDPFVEPVSIECGHSFCQECISQVGKGGGSVCPVCRQRFLLKNLRP (TRIM21 RING domain (UniProt P19474)) | 0
B1 (TRIM8 RING domain) | 0
B2 (CUL9 RING domain) | 0
EDEVSDNSAECVVCLSDVRDTLILPCRHLCLCNTCADTLRYQANNCPICRLPFRALLQIR (RNF157 RING domain (UniProt Q96PX1)) | 0
B3 (MID1 RING domain) | 0
DAIPSLSECQCGICMEILVEPVTLPCNHTLCKPCFQSTVEKASLCCPFCRRRVSSWTRYH (RNF168 RING domain (UniProt Q8IYW5)) | 0
B4 (TRIM63 RING domain) | 0
B5 (RNF170 RING domain) | 0
QLRRLQEERTCKVCMDKEVSVVFIPCGHLVVCQECAPSLRKCPICRGIIKGTVRTF (BIRC2 RING domain (UniProt Q13490)) | 0
KTLSRFGIQPCSICLGDAKDPVCLPCDHVHCLRCLRAWFASEQMICPYCLTALPDEFSPA (RNF213 RING domain (UniProt Q63HN8)) | 0
QLRRLQEERTCKVCMDKEVSIVFIPCGHLVVCKDCAPSLRKCPICRSTIKGTVRTF (BIRC3 RING domain (UniProt Q13489)) | 0

Set 2
Target: RNA binding protein fox-1 homolog 2, RRM domain, GST-SBP tag (RBFOX2, Homo sapiens, UniProt O43251-10, residues 100-194)
Method: RNA Bind-n-Seq
Molecule type: RNA
Sample: in vitro
Concentration: 365 nM
Setting: natural RNA segment, single round, ends assumed
Baseline: no-protein control
Direction: higher = stronger binding
Constant ends, left off below: GGGAGUUCUACAGUCCGACGAUC … UGGAAUUCUCGGGUGCCAA
Construct (chain): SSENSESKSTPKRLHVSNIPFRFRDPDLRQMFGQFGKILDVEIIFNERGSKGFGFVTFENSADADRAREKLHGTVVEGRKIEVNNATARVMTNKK
Strand | RBNS enrichment (R)
CAGGCUGGAUCCGAGUGUCCCCUCUGCAGCAGACGGGGACGCCAGGAUGCGGCUUGGGACUCAGACCUCAUCAUAUUGAUGAGUAGAAAGAACGUUCCCCCGCCCUCCUC | 0.219
ACUUGACCAUCGGUGGCCAUUUUCCAAGCCAGUCUGGUCAAGACUCAUGGCUGAACCUCUGAGACUGAGCCUUGGGGAGCACAGCUCUACUCUGGUUACACGGAUCACCU | 0.183
GGAGACGGAAGAUCUUUUAUUUUCUAUUAUUUAUAACUUCAGACUUGGGCCCCCUGUUCUUUCUUUCCCAUUAACUUGAGUGACCUGUGUGAGAGACAGACAGAUGCCCC | 0.334
GUUAUAAUCCUAUAUAAAGCUACUCCUUGUUGCUGUGUGCAAGUUUACAUCAGGAUGCUCACGUGAUUUGUGAAUAUUUUCAUUCCAUCAACAAGGGAGUUUAAUUAUGU | 0.768
AUGGAGAGGAACAUGAGGAACAAUGAAUUCCAACAUAUGGCUUUAGAACAUCAGGAUGUUCUUGUAUUGGAUAUAGUAUCUAGUAUUCAAAAAUGCCUGCAUCUCUUAUU | 1.46
CUUGAGUCCUGUUGGACGUGAUAGUGUUUCUUGAUCUGUAUGCCACAGUGCCUUUAUGGCCAGUUUGAGUCCUACCUACUUCAGUUUUUAUGUUCCCACUCCUCCUGUGU | 0.615
CCAUUAGCAACACUAAAACUUGAUCAUUAACAGCCCCCUGUGCAUAUGAGUGGAUCAAACCGGUUCUGUUCUUUCUUGUGUUGCCAUGUUACUAUGCCUCAAGCCCAGUU | 1.04
UCGGGUAUGCAUGUCCGGUAGGCAUAGCUGUCACAAAGCGGGUGUACUUAUGGUGAAAGAGGACAUUUUUUUUUUCUUCAGGAUAGUUGAAAGGGCAGGCCCAACGGCUG | 2.36

Set 3
Target: Interferon regulatory factor 5, full length, phosphomimetic (IRF5, Homo sapiens, UniProt Q13568-2, residues 1-514, S451D/S453D/S456D/S462D)
Method: protein-binding microarray
Molecule type: double-stranded DNA, one strand shown
Sample: in vitro
Concentration: 940 nM top
Setting: 60-bp whole probe
Added: salmon DNA 0.4 mg/ml
Baseline: random background probes
Direction: higher = stronger binding
Constant ends, left off below: GCCTAGCAC … GTCTTGATTCGCTTGACGCTGCTG
Strand | fitted relative affinity [z-score]
CACACTTTCCCCTTCCTAGTGTGCTAG | 1.62
TACAGGTTCTCTTTTATTTTGTGCTAG | 1.14
TTAGGTTGCCTTTTCCTTTAGTGCTAG | 0.478
TCAAAGATCATTCTCACACTGTGCTAG | 0.456
TTAGGCATCCTTATCCTTTAGTGCTAG | -0.269
GCCGATTTCGGGTTTCGAGACGTGCTA | 2.28
GACGGACTGGGGATTGGGGACGTGCTA | -0.3
TTAGGACTGGGGGATCGGTTAGTGCTA | 0.945
TCACATTCTGAATTCGAACTGTGCTAG | 0.247
TTAGATATCAGTCTCGCTTAGTGCTAG | 1.53
TTAGATATCGGGTATCGATGAGTGCTA | 2.02
TTAGGTATCCCTATCCTTTAGTGCTAG | 0.759
TCAAGTTTCCCTCCCTGACTGTGCTAG | 1.35
TTAGATCTCAGTATCGAGTAGTGCTAG | 1.69
GATTTTTTTCATATATATATGTGCTAG | 1.14
ATTTAAAACAACTTTCAAAGGGTGCTA | 0.107
GACGGAGTGGGGTATCGGGACGTGCTA | 0.324
TTAGCTATCGGGTTTCGATTAGTGCTA | 4.69
TTAGGAATCGGGTTTCGGTTAGTGCTA | 6.42

Set 4
Target: CCNB1, cyclin fold, Cln2 fusion (human)
Method: yeast growth competition, sequencing
Sample: yeast
Setting: strong parent motif
Baseline: not given
Direction: higher = stronger binding
Parent: INSM1 docking peptide (human); PKAIRKLHFEDEV; partner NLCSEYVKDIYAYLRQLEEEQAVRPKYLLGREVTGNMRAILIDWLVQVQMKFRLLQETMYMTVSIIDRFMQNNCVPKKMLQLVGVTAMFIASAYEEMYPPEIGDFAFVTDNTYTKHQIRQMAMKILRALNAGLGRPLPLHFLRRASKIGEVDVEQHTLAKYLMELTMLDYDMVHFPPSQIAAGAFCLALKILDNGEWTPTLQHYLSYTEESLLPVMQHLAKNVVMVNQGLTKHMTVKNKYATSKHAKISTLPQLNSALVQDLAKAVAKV
Change | normalised enrichment score
E10L | 0.775
K6D | 0.12
E12A | 1.69
K6T | 0.737
L7C | 0.252
A3G | 0.55
D11I | 1.29
K6F | 0.605
R5P | 0.191
R5N | 0.177
K2M | 3.11
E10S | 1.21
E10D | 2.31
L7W | -0.0051
R5V | 1.04
D11S | 1.36
E12D | 2.19
R5W | 0.193
A3E | 1.3
R5G | 0.278
D11T | 0.907
E12M | 1.51
A3R | 0.327
E12W | 0.94
D11F | 0.988

Some of these lines once more (set 4):
Change | normalised enrichment score
D11F | 0.988
R5W | 0.193
R5N | 0.177
D11I | 1.29
K6F | 0.605
L7C | 0.252
